Published values collected from several papers.
Each line is one published result; not all experiments were run side by side.
Cell line: NCI-H322M

`COC(=O)/C=C1\C(=O)C=C2C3CC4CC(CCC4(C)N21)C3(C)NC(C)=O` (centres unmarked) has an IC50 of 18.4 µM (cell growth, NCI screen).
`C#C[C@@]1(O)[C@@H](CO)O[C@@H](n2ccc3c(N)ncnc32)[C@@H]1O` has a TGI of 6.08 µM (SRB; NCI-60 screen).
`O=C(Nc1nnc2[nH]c(=S)[nH]c(-c3ccc(Cl)cc3)c1-2)c1ccccc1` has a cell growth of 101% (SRB; 10 µM, NCI60 single-dose screen; relative to: untreated).
`COCCOCCOCc1n(Cc2ccc3ccccc3n2)c2ccccc2[n+]1Cc1ccc2ccccc2c1.[Br-]` has a TGI of 7.09 µM (NCI60 five-dose).
`CCN(CC)c1ccc(C=NNC(=O)CSc2nc3ccccc3c(=O)n2Cc2ccc(S(N)(=O)=O)cc2)c(O)c1` has a TGI of over 100 µM (NCI five-dose screen).
With `S=C([S][Au-][P+](CCCCCC[P+]([Au-][S]C(=S)n1cccn1)(c1ccccc1)c1ccccc1)(c1ccccc1)c1ccccc1)n1cccn1` the log10 TGI was over -4 (cell growth, NCI-60 screen; non-small cell lung cancer).
With `Cn1cncc1C1=CN(c2ncnc3[nH]cnc23)CCS1` the TGI was 110 µM (lung cancer).
The cell growth of `Cc1n[nH]c2nc(-c3ccc(Cl)cc3)c3c(NC(=O)c4ccccc4)nnc-3n12` is reported as 108% (SRB; 10 µM, NCI60 single-dose screen; relative to: untreated).
The growth inhibition of `CCCCCCCCCCCCCCCCCCOc1ccc(CC(=O)OCC[N+]2(C)CCCC2)cc1` is reported as under 0% (SRB; 10 µM).
With `NNc1nc(-c2ccc(Cl)cc2)c2c(NC(=O)c3ccccc3)nnc-2[nH]1` the cell growth was 98.9% (SRB; 10 µM, NCI60 single-dose screen; relative to: untreated).
`Cc1cc2c(cc1C)[n+](Cc1ccc3ccccc3c1)cn2Cc1ccc2ccccc2c1.[Br-]` gave a TGI of 2.42 µM (NCI60 five-dose).
The growth inhibition of `CCCCCCCCCCCCCCCCCCOc1cccc(CC(=O)OCC[N+]2(C)CCCC2)c1` is reported as under 0% (SRB; 10 µM).
`CCOC(=O)CSc1nc(-c2ccc(Cl)cc2)c2c(NC(=O)c3ccccc3)nnc-2[nH]1` gave a cell growth of 96.6% (SRB; 10 µM, NCI60 single-dose screen; relative to: untreated).
With `CCCCc1n(Cc2ccc3ccccc3c2)c2ccccc2[n+]1Cc1ccc2ccccc2c1.[Br-]` the TGI was 2.57 µM (NCI60 five-dose).

A few entries again:
`CCOC(=O)CSc1nc(-c2ccc(Cl)cc2)c2c(NC(=O)c3ccccc3)nnc-2[nH]1` gave a cell growth of 96.6% (SRB; 10 µM, NCI60 single-dose screen; relative to: untreated).
With `CCCCc1n(Cc2ccc3ccccc3c2)c2ccccc2[n+]1Cc1ccc2ccccc2c1.[Br-]` the TGI was 2.57 µM (NCI60 five-dose).
